Assay results pooled from the literature.
Lines come from different studies, so protocols differ. Numbers after ± are the reported error.

The tissue uptake of `CCCC[C@H](NC(=O)CNC(=O)CNC(=O)CN1CCN(CC(=O)O)CCN(CC(=O)O)CC1)C(=O)N[C@H]1CC(=O)NCCCC[C@@H](C(N)=O)NC(=O)[C@H](Cc2c[nH]c3ccccc23)NC(=O)[C@H](CCCNC(=N)N)NC(=O)[C@@H](Cc2ccccc2)NC(=O)[C@H](Cc2c[nH]cn2)NC1=O` [technetium-99m labelled] is reported as 1.89 ± 0.44 %ID/g (C57 mouse, skin; iv, 0.037 MBq, 0.5 h).
`CCCC[C@H](NC(=O)COCCOCCNC(=O)CN1CCN(CC(=O)O)CCN(CC(=O)O)CC1)C(=O)N[C@H]1CC(=O)NCCCC[C@@H](C(N)=O)NC(=O)[C@H](Cc2c[nH]c3ccccc23)NC(=O)[C@H](CCCNC(=N)N)NC(=O)[C@@H](Cc2ccccc2)NC(=O)[C@H](Cc2c[nH]cn2)NC1=O` [copper-64 labelled] has a tissue uptake of 1.94 ± 0.26 %ID/g (C57 mice, liver; intravenous, 0.37 MBq, 2 h).
`N=C(N)NCCC[C@@H]1NC(=O)[C@H](CCCCNC(=O)CNC(=O)CNC(=O)CNC(=O)CC[C@H](NC(=O)CNC(=O)CNC(=O)CNC(=O)CC[C@H](NC(=O)CN2CCN(CC(=O)O)CCN(CC(=O)O)CCN(CC(=O)O)CC2)C(=O)NCC(=O)NCC(=O)NCC(=O)N[C@@H](CCC(=O)NCC(=O)NCC(=O)NCC(=O)NCCCC[C@@H]2NC(=O)[C@@H](Cc3ccccc3)NC(=O)[C@H](CC(=O)O)NC(=O)CNC(=O)[C@H](CCCNC(=N)N)NC2=O)C(=O)NCC(=O)NCC(=O)NCC(=O)NCCCC[C@@H]2NC(=O)[C@@H](Cc3ccccc3)NC(=O)[C@H](CC(=O)O)NC(=O)CNC(=O)[C@H](CCCNC(=N)N)NC2=O)C(=O)NCC(=O)NCC(=O)NCC(=O)NCCCC[C@@H]2NC(=O)[C@@H](Cc3ccccc3)NC(=O)[C@H](CC(=O)O)NC(=O)CNC(=O)[C@H](CCCNC(=N)N)NC2=O)NC(=O)[C@@H](Cc2ccccc2)NC(=O)[C@H](CC(=O)O)NC(=O)CNC1=O` [indium-111 labelled] has a tissue uptake of 0.06 ± 0.02 %ID/g (female athymic nu/nu mice, blood; intravenous, 24 h).
For `CCCC[C@H](NC(=O)CCCCCCCNC(=O)CN1CCN(CC(=O)O)CCN(CC(=O)O)CC1)C(=O)N[C@H]1CC(=O)NCCCC[C@@H](C(N)=O)NC(=O)[C@H](Cc2c[nH]c3ccccc23)NC(=O)[C@H](CCCNC(=N)N)NC(=O)[C@@H](Cc2ccccc2)NC(=O)[C@H](Cc2c[nH]cn2)NC1=O` [copper-64 labelled], the tissue uptake was 3.42 ± 0.58 %ID/g (C57 mice, liver; intravenous, 0.37 MBq, 0.5 h).
The tissue uptake of `N=C(N)NCCC[C@@H]1NC(=O)[C@H](CCCCNC(=O)CNC(=O)CNC(=O)CNC(=O)CC[C@H](NC(=O)CNC(=O)CNC(=O)CNC(=O)CN2CCN(CC(=O)O)CCN(CC(=O)O)CCN(CC(=O)O)CC2)C(=O)NCC(=O)NCC(=O)NCC(=O)NCCCC[C@@H]2NC(=O)[C@@H](Cc3ccccc3)NC(=O)[C@H](CC(=O)O)NC(=O)CNC(=O)[C@H](CCCNC(=N)N)NC2=O)NC(=O)[C@@H](Cc2ccccc2)NC(=O)[C@H](CC(=O)O)NC(=O)CNC1=O` [indium-111 labelled] is reported as 0.51 ± 0.04 %ID/g (female athymic nu/nu mice, eyes; intravenous, 4 h).
`COC(=O)[C@H](CSSC(C)(C)[C@H](NC(=O)[C@H](CCC(=O)NC[C@H](O)[C@@H](O)[C@H](O)[C@H](O)CO)NC(=O)[C@H](CCC(=O)O)NC(=O)[C@H](CCC(=O)NC[C@H](O)[C@@H](O)[C@H](O)[C@H](O)CO)NC(=O)[C@H](CCC(=O)O)NC(=O)[C@H](CCC(=O)NC[C@H](O)[C@@H](O)[C@H](O)[C@H](O)CO)NC(=O)CC[C@H](NC(=O)c1ccc(NCc2cnc3nc(N)[nH]c(=O)c3n2)cc1)C(=O)O)C(=O)O)NC(=O)CC[C@H](NC(=O)c1ccc(NCc2cnc3nc(N)[nH]c(=N)c3n2)cc1)C(=O)O` has a terminal half-life of 1.01 to 1.21 h (beagle dog, male, plasma; intravenous or subcutaneous).
Under “HPLC retention time”, `C[N+]1=C(C=CC=CC=C2N(CCCCCC(=O)NCCCC[C@H](NC(=O)[C@@H](CCC(=O)O)NC(=O)[C@@H](CCC(=O)O)NC(=O)[C@@H](CCC(=O)O)NC(=O)CCCCCNC(=O)C3CCC(CNC(=O)CC[C@H](NC(=O)N[C@@H](CCC(=O)O)C(=O)O)C(=O)O)CC3)C(N)=O)c3ccc4ccccc4c3C2(C)C)C(C)(C)c2c1ccc1ccccc21` (some centres unmarked) is recorded as 39.4 min (reversed-phase HPLC, C18; 5-55% acetonitrile over 30 min).
The tissue uptake of `CCCC[C@H](NC(=O)CNC(=O)CNC(=O)CN1CCN(CC(=O)O)CCN(CC(=O)O)CCN(CC(=O)O)CC1)C(=O)N[C@H]1CC(=O)NCCCC[C@@H](C(N)=O)NC(=O)[C@H](Cc2c[nH]c3ccccc23)NC(=O)[C@H](CCCNC(=N)N)NC(=O)[C@@H](Cc2ccccc2)NC(=O)[C@H](Cc2c[nH]cn2)NC1=O` [lutetium-177 labelled] is reported as < 1.37 %ID/g (C57 mouse, female, normal organs except kidneys; iv, 0.037 MBq, 2 h).
`CC(=O)N(O)CCCCCNC(=O)CCC(=O)N(O)CCCCCNC(=O)CCC(=O)N(O)CCCCCNC(=S)Nc1ccc(NC(=S)NCCC(=O)N[C@H](CC(=O)O)C(=O)N[C@H](CC(=O)O)C(=O)NCCC(=O)N[C@H](CC(=O)O)C(=O)N[C@H](CC(=O)O)C(=O)NCCC(=O)N[C@H](CC(=O)O)C(=O)N[C@H](CC(=O)O)C(=O)NCCC(=O)N[C@H](CC(=O)O)C(=O)N[C@H](CC(=O)O)C(N)=O)cc1` [zirconium-89 labelled] — result for “time to urinary excretion”: ≤ 1 h (PET/CT; BALB/cJ mice; intravenous, dose not given).
`CCCC[C@H](NC(=O)[C@H](CC(N)=O)NC(=O)[C@H](CCCNC(=N)N)NC(=O)[C@@H](NC(=O)CNC(=O)[C@H](C)NC(=O)[C@H](CCCCNC(=O)CCC(=O)O[C@@H](C(=O)O[C@H]1C[C@@]2(O)[C@@H](OC(=O)c3ccccc3)[C@@H]3[C@]4(OC(C)=O)CO[C@@H]4C[C@H](O)[C@@]3(C)C(=O)[C@H](O)C(=C1C)C2(C)C)[C@@H](NC(=O)OC(C)(C)C)c1ccccc1)NC(=O)[C@H](C)NC(=O)[C@H](CCCNC(=N)N)NC(=O)[C@@H](NC(=O)CNC(C)=O)C(C)C)C(C)C)C(=O)N[C@@H](Cc1ccccc1)C(=O)N[C@@H](CCCCNC(=O)CCC(=O)O[C@@H](C(=O)O[C@H]1C[C@@]2(O)[C@@H](OC(=O)c3ccccc3)[C@@H]3[C@]4(OC(C)=O)CO[C@@H]4C[C@H](O)[C@@]3(C)C(=O)[C@H](O)C(=C1C)C2(C)C)[C@@H](NC(=O)OC(C)(C)C)c1ccccc1)C(=O)N[C@@H](CO)C(=O)N[C@@H](CCC(=O)O)C(=O)N[C@@H](CO)C(=O)N[C@@H](Cc1ccc(O)cc1)C(=O)O` gave a Cmax of 388 µM (CD-1 mouse, plasma; intravenous, 50 mg/kg, single dose).
For `N=C(N)NCCC[C@@H]1NC(=O)[C@H](CCCCNC(=O)CC[C@H](NC(=O)CC[C@H](NC(=O)CN2CCN(CC(=O)O)CCN(CC(=O)O)CCN(CC(=O)O)CC2)C(=O)N[C@@H](CCC(=O)NCCCC[C@@H]2NC(=O)[C@@H](Cc3ccccc3)NC(=O)[C@H](CC(=O)O)NC(=O)CNC(=O)[C@H](CCCNC(=N)N)NC2=O)C(=O)NCCCC[C@@H]2NC(=O)[C@@H](Cc3ccccc3)NC(=O)[C@H](CC(=O)O)NC(=O)CNC(=O)[C@H](CCCNC(=N)N)NC2=O)C(=O)NCCCC[C@@H]2NC(=O)[C@@H](Cc3ccccc3)NC(=O)[C@H](CC(=O)O)NC(=O)CNC(=O)[C@H](CCCNC(=N)N)NC2=O)NC(=O)[C@@H](Cc2ccccc2)NC(=O)[C@H](CC(=O)O)NC(=O)CNC1=O` [indium-111 labelled], the tissue uptake was 0.78 ± 0.46 %ID/g (female athymic nu/nu mice, eyes; intravenous, 72 h).

For quick reference, copied from above:
The tissue uptake of `CCCC[C@H](NC(=O)CNC(=O)CNC(=O)CN1CCN(CC(=O)O)CCN(CC(=O)O)CCN(CC(=O)O)CC1)C(=O)N[C@H]1CC(=O)NCCCC[C@@H](C(N)=O)NC(=O)[C@H](Cc2c[nH]c3ccccc23)NC(=O)[C@H](CCCNC(=N)N)NC(=O)[C@@H](Cc2ccccc2)NC(=O)[C@H](Cc2c[nH]cn2)NC1=O` [lutetium-177 labelled] is reported as < 1.37 %ID/g (C57 mouse, female, normal organs except kidneys; iv, 0.037 MBq, 2 h).
